{"data": "Assay results from different studies", "note": "Each line is one published result; not all experiments were run side by side. “And” joins repeats or separate records; there may be more than shown. Numbers after ± are the reported error."}
{"Substance": "CCC(=O)Nc1cc(Nc2cc(NC3CC3)n3ncc(C#N)c3n2)ccc1N(C)CCN", "organism": "murine hepatitis virus", "test": "viral replication, nanoluciferase reporter", "system": "DBT", "conditions": "10 h", "IC50": "0.1 µM"}
{"Substance": "CC[C@H](C)[C@H](NC(=O)[C@H](Cc1ccccc1)NC(=O)[C@H](CC(=O)O)NC(=O)[C@H](CCCCN)NC(=O)[C@H](C)NC(=O)[C@H](CCCCN)NC(=O)[C@H](CC(N)=O)NC(=O)[C@H](CC(C)C)NC(=O)[C@H](Cc1c[nH]c2ccccc12)NC(=O)[C@H](CCC(=O)O)NC(=O)[C@H](CCCCN)NC(=O)[C@@H](NC(=O)CNC(=O)[C@H](C)N)[C@@H](C)O)C(=O)N[C@@H](CCCCN)C(=O)N[C@@H](CCC(=O)O)C(=O)N[C@@H](CCCCN)C(=O)NCC(=O)N[C@@H](CC(C)C)C(=O)NCC(=O)N[C@@H](CCSC)C(=O)N[C@@H](CC(C)C)C(=O)N[C@@H](CO)C(=O)N[C@@H](C)C(=O)N[C@@H](C)C(=O)N[C@@H](C)C(=O)N[C@@H](CC(N)=O)C(=O)N[C@@H](C)C(=O)N[C@@H](C)C(=O)N[C@@H](CC(C)C)C(=O)N[C@@H](CC(N)=O)C(=O)O", "organism": "Haemonchus contortus", "test": "larval development", "system": "Kirby isolate", "conditions": "6 days, 26 °C", "IC50": "23 to 38 µM and 37.8 µM"}
{"Substance": "CO/C(=C/C(N)=O)[C@H](C)[C@H](/C=C/c1csc(-c2csc([C@@H](C)/C=C/C=C/C(C)C)n2)n1)OC", "organism": "Wickerhamomyces anomalus", "test": "O2 uptake, inhibitor", "system": "mitochondria", "conditions": "added: glycerol 3-phosphate 20 mM", "IC50": "0.067 µM"}
{"Substance": "O=Cc1cn(Cc2ccccc2)c2ccc([N+](=O)[O-])cc12", "organism": "Trypanosoma brucei rhodesiense", "system": "trypomastigotes, IL1501", "IC50": "> 89 µM"}
{"Substance": "CC(=O)Nc1ccc2ccn(-c3cc(Nc4ccccc4)n4ncc(C#N)c4n3)c2c1", "organism": "murine hepatitis virus", "test": "viral replication, nanoluciferase reporter", "system": "DBT", "conditions": "10 h", "IC50": "1.58 µM"}
{"Substance": "CC(C)c1cc2c(cc1O)[C@@]1(C)CCCC(C)(C)[C@@H]1[C@@H](O)C2=O", "organism": "Leishmania amazonensis", "test": "parasite growth", "system": "mouse Peritoneal macrophage", "conditions": "72 h, intracellular, amastigote", "IC50": "5.4 µg/mL"}
{"Substance": "CC(=O)Nc1ccc2ccn(-c3cc(NCC4CCOC4)n4ncc(C#N)c4n3)c2c1 (stereo not shown)", "organism": "murine hepatitis virus", "test": "viral replication, nanoluciferase reporter", "system": "DBT", "conditions": "10 h", "IC50": "0.631 µM"}
{"Substance": "C[C@H]1N[C@@H](CCCCCCCCCCC2=C[C@@H](CCCCCCCCCC[C@H]3CC[C@@H](O)[C@@H](C)N3)[C@@H]3CCCN3C2)CC[C@H]1O", "organism": "Leishmania donovani", "test": "parasite growth, resazurin", "conditions": "72 h, amastigote", "IC50": "2 µg/mL"}
{"Substance": "O=C(O)C(=O)CBr", "organism": "Leishmania infantum", "test": "intracellular amastigotes", "system": "U-937 macrophages", "conditions": "48 h", "IC50": "24.9 ± 2.3e-05 µM"}
{"Substance": "C/C(=C\\Cc1c(O)c(Cl)c(C)c(C=O)c1O)CC/C=C(\\C)[C@@H]1CC(=O)C(C)(C)O1", "organism": "Wickerhamomyces anomalus", "test": "O2 uptake, inhibitor", "system": "mitochondria", "conditions": "added: succinate 15 mM", "IC50": "14.5 µM"}
{"Substance": "O=C(Nc1ccc(Cl)cc1)N1CCCC1c1nc(-c2ccccc2)no1 (stereo not shown)", "organism": "Ancylostoma ceylanicum", "system": "adults", "IC50": "3 to 50 µM"}
{"Substance": "CC(=O)Nc1ccc2ccn(-c3cc(NC4CCN(C(C)=O)CC4)n4ncc(C#N)c4n3)c2c1", "organism": "murine hepatitis virus", "test": "viral replication, nanoluciferase reporter", "system": "DBT", "conditions": "10 h", "IC50": "3.98 µM"}
{"Substance": "N=C(N)N[C@H]1Cc2ccccc2[C@@H]1NC(=O)C(=O)Nc1ccc(Cl)c(F)c1", "organism": "HIV-1 YU2", "test": "viral infection", "system": "Cf2Th-CD4/CCR5", "IC50": "21.3 µM"}
{"Substance": "O=C1C(O)=C([C@H]2CC[C@H](c3ccc(Cl)cc3)CC2)C(=O)c2ccccc21", "organism": "Toxoplasma gondii", "system": "tachyzoites", "IC50": "0.032 ± 0.019 µM"}
{"Substance": "meglumine antimoniate", "organism": "Leishmania infantum", "conditions": "promastigotes", "IC50": "18 ± 3.1 µM"}
{"Substance": "[Cl-].[Cl-].[Cl-].[Cl-].[O]=[V+2].[O]=[V+2].c1cc(CN2CCCNCCNCCCNCC2)ccc1CN1CCCNCCNCCCNCC1", "organism": "HIV-2", "test": "viral cytopathicity", "system": "MT4, ROD", "IC50": "0.142 µM and 0.236 µM"}
{"Substance": "C=C(C)[C@H]1Cc2c(ccc3c2O[C@@H]2COc4cc(OC)c(OC)cc4[C@@H]2C3=O)O1", "organism": "Plasmodium yoelii", "test": "oxygen consumption", "system": "17XL, infected red blood cells", "IC50": "> 2.5 µM"}
{"Substance": "CCC(=O)Nc1cc(Nc2cc(NC3CC3)n3ncc(C#N)c3n2)ccc1N(C)CCN1CCCCC1", "organism": "murine hepatitis virus", "test": "viral replication, nanoluciferase reporter", "system": "DBT", "conditions": "10 h", "IC50": "2 µM"}
{"Substance": "Cc1ccc(Cn2cc(C=O)c3cc([N+](=O)[O-])ccc32)cc1", "organism": "Trypanosoma congolense", "system": "trypomastigotes, IL3000", "IC50": "> 85 µM"}
{"Substance": "O=[N+]([O-])c1ccc(CSc2ncnc3c2ncn3C2CC(CO)C(O)C2O)cc1 (stereo not shown)", "organism": "Toxoplasma gondii", "test": "parasite growth, radiolabelled uracil incorporation", "system": "RH wild type, tissue culture", "IC50": "43 µM and 42.8 µM"}
{"Substance": "O=Cc1cn(Cc2cccc(Cl)c2)c2ccc([N+](=O)[O-])cc12", "organism": "Trypanosoma equiperdum", "system": "trypomastigotes, IVM-t1", "IC50": "> 79 µM"}
{"Substance": "CC(C)C[C@H](NC(=O)[C@H](CCc1ccccc1)NC(=O)CN1CCOCC1)C(=O)N[C@@H](Cc1ccccc1)C(=O)N[C@@H](CC(C)C)C(=O)[C@@]1(C)CO1", "organism": "Babesia divergens", "test": "parasite growth", "system": "bovine erythrocyte culture", "conditions": "48 h, starting parasitemia 2%", "IC50": "0.029 ± 0.01 µM"}
{"Substance": "COc1cc2cc(Oc3ccc4ccc(=O)oc4c3)c(=O)oc2cc1OC", "organism": "human rhinovirus 2", "test": "cytopathic effect", "system": "HeLa", "conditions": "72 h", "IC50": "97.1 ± 33.9 µM"}
{"Substance": "CCCC[C@H]1C(=O)O[C@H](C)[C@H](NC(=O)c2cccc(NC=O)c2O)C(=O)O[C@@H](C)[C@@H]1OC(=O)CC(C)C", "organism": "Wickerhamomyces anomalus", "test": "O2 uptake, inhibitor", "system": "mitochondria", "conditions": "added: duroquinol 1 mM", "IC50": "0.027 µM"}
{"Substance": "COC(=O)CC(O)c1cc(OC)c(O)c(OC)c1 (stereo not shown)", "organism": "human rhinovirus 2", "test": "cytopathic effect", "system": "HeLa", "conditions": "72 h", "IC50": "inactive"}
{"Substance": "Cc1ccccc1CSc1ncnc2c1ncn2C1CC(CO)C(O)C1O (stereo not shown)", "organism": "Toxoplasma gondii", "test": "parasite growth, radiolabelled uracil incorporation", "system": "RH wild type, tissue culture", "IC50": "19.7 ± 2.8 µM"}
{"Substance": "O=Cc1cn(Cc2ccc(F)cc2)c2ccc([N+](=O)[O-])cc12", "organism": "Leishmania major", "test": "parasite growth, resazurin", "system": "THP-1", "conditions": "24 h, intracellular, amastigote", "IC50": "13.1 µM"}
{"Substance": "Nc1nc2c(ncn2COCCO)c(=O)[nH]1", "organism": "human alphaherpesvirus 1", "IC50": "0.27 µM"}
{"note": "A few entries again:"}
{"Substance": "COc1cc2cc(Oc3ccc4ccc(=O)oc4c3)c(=O)oc2cc1OC", "organism": "human rhinovirus 2", "test": "cytopathic effect", "system": "HeLa", "conditions": "72 h", "IC50": "97.1 ± 33.9 µM"}
{"Substance": "O=C(Nc1ccc(Cl)cc1)N1CCCC1c1nc(-c2ccccc2)no1 (stereo not shown)", "organism": "Ancylostoma ceylanicum", "system": "adults", "IC50": "3 to 50 µM"}
